Published values collected from several papers.
A part holds a random share of what one study measured. Values joined by “and” are separate records of one study, mostly repeats; a detail may differ.
Sequence of UniProt Q13976 (whole entry, looked up): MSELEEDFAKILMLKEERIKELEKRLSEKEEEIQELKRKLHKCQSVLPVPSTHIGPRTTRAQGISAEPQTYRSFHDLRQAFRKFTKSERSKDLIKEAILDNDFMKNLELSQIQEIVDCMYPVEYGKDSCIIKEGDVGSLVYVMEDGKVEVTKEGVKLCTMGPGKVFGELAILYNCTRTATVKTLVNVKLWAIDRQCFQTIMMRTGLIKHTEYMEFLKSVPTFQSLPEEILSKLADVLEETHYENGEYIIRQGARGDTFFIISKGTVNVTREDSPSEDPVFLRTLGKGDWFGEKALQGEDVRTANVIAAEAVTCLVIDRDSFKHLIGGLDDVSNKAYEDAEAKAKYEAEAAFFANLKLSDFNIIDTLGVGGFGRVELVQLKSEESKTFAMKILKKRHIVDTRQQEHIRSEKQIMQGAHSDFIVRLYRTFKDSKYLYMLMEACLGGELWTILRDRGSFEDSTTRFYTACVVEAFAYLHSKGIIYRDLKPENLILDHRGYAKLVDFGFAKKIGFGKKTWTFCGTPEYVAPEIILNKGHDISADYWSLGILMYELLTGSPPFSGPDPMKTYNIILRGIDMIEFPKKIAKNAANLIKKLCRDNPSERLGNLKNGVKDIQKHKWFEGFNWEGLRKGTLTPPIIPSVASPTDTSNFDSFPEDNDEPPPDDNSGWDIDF
Sequence of UniProt P07947 (whole entry, looked up): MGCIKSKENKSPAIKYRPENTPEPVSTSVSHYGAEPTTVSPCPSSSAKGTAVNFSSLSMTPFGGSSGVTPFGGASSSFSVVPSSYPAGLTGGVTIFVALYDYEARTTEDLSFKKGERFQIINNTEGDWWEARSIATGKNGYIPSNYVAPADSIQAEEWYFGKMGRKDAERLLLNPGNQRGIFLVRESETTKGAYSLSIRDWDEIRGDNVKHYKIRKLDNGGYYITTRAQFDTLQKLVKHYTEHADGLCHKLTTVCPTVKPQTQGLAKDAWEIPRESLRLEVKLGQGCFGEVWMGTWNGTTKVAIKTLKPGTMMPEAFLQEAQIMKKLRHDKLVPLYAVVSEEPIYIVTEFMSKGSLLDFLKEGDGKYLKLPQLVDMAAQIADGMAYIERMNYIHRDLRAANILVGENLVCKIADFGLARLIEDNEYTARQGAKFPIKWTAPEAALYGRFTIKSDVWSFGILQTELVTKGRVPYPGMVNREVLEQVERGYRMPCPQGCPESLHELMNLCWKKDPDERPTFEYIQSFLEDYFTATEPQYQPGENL
Sequence of UniProt Q96RR4 (whole entry, looked up): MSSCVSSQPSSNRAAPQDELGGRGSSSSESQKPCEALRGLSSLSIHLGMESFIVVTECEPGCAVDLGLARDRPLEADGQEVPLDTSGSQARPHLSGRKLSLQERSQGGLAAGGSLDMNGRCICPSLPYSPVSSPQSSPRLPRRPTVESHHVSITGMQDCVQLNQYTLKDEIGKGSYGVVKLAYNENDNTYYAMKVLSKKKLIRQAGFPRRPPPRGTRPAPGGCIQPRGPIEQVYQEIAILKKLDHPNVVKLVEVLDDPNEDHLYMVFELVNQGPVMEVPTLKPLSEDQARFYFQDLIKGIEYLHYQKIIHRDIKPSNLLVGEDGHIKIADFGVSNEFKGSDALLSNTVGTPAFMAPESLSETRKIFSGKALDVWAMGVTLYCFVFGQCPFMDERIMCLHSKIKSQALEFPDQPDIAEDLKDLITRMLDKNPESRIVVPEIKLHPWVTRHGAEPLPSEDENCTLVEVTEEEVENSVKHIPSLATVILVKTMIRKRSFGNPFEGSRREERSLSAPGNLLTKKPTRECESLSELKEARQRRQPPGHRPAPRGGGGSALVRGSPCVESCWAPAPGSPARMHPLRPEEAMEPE
Sequence of UniProt P35626 (whole entry, looked up): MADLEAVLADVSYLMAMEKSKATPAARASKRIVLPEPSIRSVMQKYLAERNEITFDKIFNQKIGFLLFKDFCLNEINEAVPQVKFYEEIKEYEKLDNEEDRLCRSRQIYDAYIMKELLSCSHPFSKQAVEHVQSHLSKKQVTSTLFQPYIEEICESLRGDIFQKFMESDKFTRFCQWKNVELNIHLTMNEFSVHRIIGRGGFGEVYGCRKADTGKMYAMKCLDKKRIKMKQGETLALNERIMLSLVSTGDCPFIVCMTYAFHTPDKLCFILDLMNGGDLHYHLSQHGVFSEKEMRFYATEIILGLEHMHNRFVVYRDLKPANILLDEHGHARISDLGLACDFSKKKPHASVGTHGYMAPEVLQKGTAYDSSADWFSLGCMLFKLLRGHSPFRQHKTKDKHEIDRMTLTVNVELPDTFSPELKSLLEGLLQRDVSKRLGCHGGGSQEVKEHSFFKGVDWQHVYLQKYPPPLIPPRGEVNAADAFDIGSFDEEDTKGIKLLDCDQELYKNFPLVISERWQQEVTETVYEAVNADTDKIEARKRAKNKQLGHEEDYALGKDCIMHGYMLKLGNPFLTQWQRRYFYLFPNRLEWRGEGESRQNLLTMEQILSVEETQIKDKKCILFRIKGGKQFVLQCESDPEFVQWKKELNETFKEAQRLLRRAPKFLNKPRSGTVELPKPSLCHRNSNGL

Series 1
Compound: O=C1NCCc2[nH]c(-c3ccncc3)cc21
Cell line: HH
Technique: CCK-8
For 500 nM: viability read 95.8% and 88.7% and 95.4%.
10 nM — viability: 98.1% and 98.6% and 102%.
For 50 nM: viability read 98.2% and 94.4% and 97.9%.

Series 2
Target: DNA polymerase theta, ATPase domain (POLQ, Homo sapiens, UniProt O75417)
Sequence of UniProt O75417 (whole entry, unmodified, looked up): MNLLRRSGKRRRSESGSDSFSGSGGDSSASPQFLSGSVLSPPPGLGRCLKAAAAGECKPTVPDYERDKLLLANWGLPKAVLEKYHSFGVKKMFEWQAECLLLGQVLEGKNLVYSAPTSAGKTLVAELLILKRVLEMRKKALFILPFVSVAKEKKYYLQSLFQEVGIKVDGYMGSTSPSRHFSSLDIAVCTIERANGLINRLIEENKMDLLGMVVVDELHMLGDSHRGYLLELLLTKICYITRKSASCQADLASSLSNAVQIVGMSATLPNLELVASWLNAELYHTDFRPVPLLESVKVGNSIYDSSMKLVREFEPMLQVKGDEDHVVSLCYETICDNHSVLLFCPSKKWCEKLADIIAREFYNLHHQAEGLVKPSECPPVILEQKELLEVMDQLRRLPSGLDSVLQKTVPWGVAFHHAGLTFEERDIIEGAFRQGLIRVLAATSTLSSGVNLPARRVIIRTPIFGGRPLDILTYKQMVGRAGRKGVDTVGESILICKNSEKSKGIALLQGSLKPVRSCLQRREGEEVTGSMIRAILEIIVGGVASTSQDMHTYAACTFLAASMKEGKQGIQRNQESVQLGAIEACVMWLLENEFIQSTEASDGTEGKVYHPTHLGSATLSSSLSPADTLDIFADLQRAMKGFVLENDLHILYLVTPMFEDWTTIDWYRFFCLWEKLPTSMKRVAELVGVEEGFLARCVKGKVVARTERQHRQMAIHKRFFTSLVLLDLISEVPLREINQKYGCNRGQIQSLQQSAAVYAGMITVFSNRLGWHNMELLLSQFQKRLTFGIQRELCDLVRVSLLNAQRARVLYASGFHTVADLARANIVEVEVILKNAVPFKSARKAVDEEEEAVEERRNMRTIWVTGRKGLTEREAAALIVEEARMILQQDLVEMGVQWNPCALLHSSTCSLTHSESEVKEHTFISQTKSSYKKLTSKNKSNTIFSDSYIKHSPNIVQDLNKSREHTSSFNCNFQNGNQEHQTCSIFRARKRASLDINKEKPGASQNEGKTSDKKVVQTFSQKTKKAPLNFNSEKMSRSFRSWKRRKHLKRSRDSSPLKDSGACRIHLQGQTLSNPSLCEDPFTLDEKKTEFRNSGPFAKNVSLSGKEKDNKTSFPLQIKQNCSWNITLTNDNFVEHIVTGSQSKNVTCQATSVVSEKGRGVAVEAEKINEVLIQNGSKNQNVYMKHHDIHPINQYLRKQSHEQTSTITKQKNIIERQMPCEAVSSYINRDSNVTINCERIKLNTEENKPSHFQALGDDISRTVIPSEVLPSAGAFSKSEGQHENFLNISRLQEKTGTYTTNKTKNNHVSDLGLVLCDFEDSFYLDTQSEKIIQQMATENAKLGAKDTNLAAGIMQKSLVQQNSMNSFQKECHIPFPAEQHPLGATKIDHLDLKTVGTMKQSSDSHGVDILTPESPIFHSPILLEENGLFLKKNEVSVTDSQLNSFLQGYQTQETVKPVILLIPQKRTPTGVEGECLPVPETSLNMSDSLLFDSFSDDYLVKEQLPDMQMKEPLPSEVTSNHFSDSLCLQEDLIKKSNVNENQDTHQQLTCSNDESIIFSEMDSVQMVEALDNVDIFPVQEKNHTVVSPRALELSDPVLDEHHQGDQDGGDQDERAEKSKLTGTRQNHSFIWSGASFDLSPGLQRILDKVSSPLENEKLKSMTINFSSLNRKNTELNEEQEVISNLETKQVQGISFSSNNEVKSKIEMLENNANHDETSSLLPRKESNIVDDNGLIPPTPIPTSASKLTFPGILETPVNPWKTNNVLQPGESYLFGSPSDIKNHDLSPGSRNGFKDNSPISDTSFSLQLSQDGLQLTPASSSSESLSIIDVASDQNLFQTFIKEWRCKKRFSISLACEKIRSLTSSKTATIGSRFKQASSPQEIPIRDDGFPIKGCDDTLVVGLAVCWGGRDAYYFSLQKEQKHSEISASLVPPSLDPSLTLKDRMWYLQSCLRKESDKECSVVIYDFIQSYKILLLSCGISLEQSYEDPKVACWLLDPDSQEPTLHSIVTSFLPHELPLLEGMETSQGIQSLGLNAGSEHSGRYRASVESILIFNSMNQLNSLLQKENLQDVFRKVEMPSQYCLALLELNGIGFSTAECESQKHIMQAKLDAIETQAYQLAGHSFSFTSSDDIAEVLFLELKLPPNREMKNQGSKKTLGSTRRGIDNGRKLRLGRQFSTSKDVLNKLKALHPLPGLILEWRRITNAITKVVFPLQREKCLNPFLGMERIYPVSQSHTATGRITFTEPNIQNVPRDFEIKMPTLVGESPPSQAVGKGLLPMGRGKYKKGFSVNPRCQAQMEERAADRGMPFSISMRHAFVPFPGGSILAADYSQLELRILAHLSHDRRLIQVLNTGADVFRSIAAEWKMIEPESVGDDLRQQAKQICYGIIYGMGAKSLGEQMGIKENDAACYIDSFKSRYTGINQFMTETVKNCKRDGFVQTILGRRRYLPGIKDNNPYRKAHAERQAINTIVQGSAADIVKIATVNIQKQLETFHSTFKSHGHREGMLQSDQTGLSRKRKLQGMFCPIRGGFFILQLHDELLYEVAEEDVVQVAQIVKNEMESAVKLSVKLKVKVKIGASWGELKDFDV
Observed: enzyme activity
Action: inhibitor
Concentration: 77 µM
`Cn1cncc1[C@@](N)(c1ccc(Cl)cc1)c1ccc2c(c1)c(-c1cccc(Cl)c1)cc(=O)n2C` has a remaining activity of 98.2%.
`CCN(CC)CC#CCOC(=O)C(O)(c1ccccc1)C1CCCCC1` (stereo not drawn) has a remaining activity of 105%.
The remaining activity of `CCc1cnn2c(NCc3ccc[n+]([O-])c3)cc(N3CCCC[C@H]3CCO)nc12` is reported as 94.2%.
The remaining activity of `COc1ccc2c3c1O[C@H]1C[C@@H](O)C=C[C@@]31CCN(C)C2` is reported as 102%.
The remaining activity of `CSc1ccc2c(c1)N(CCC1CCCCN1C)c1ccccc1S2` (stereo not drawn) is reported as 103%.
With `Clc1ccc(COC(Cn2ccnc2)c2ccc(Cl)cc2Cl)cc1` (stereo not drawn) the remaining activity was 102%.
`O=C(Nc1cc(C(F)(F)F)cc(C(F)(F)F)c1)c1cc(Cl)ccc1O` gave a remaining activity of 115%.

Series 3
Compound: COc1ccc2c(O[C@@H]3C[C@H]4C(=O)N[C@]5(C(=O)O)CC5/C=C\CCCCC[C@H](NC(=O)OC5CCCC5)C(=O)N4C3)cc(-c3csc(NC(=O)C(C)C)n3)nc2c1C (stereo partly drawn)
Observed: cell-free assay
Technique: competition with immobilised ligand
Concentration: 1 µM
It gave 68% for remaining binding (HIPK2 (Homo sapiens, UniProt Q9H2X6)).
It gave 100% for remaining binding (PKN1 (Homo sapiens, UniProt Q16512)).
CAMK2A (Homo sapiens, UniProt Q9UQM7) — remaining binding: 100%.
PRKG1 (Homo sapiens, UniProt Q13976) — remaining binding: 100%.
It gave 77% for remaining binding (Tyrosine-protein kinase ABL1, non-phosphorylated (ABL1, Homo sapiens, UniProt P00519, H396P)).
NEK11 (Homo sapiens, UniProt Q8NG66) — remaining binding: 84%.
The remaining binding was 100% (YES1 (Homo sapiens, UniProt P07947)).
TNK1 (Homo sapiens, UniProt Q13470) — remaining binding: 100%.
Tyrosine-protein kinase ABL1, phosphorylated (ABL1, Homo sapiens, UniProt P00519, Q252H) — remaining binding: 80%.
EGFR (Homo sapiens, UniProt P00533, L861Q) — remaining binding: 100%.
The remaining binding was 99% (NLK (Homo sapiens, UniProt Q9UBE8)).
RIPK1 (Homo sapiens, UniProt Q13546) — remaining binding: 100%.
For HIPK1 (Homo sapiens, UniProt Q86Z02): remaining binding read 77%.
It gave 98% for remaining binding (LATS2 (Homo sapiens, UniProt Q9NRM7)).
MAP3K11 (Homo sapiens, UniProt Q16584) — remaining binding: 100%.

Series 4
Structure (SMILES): COc1cc2ncnc(Nc3cccc(Cl)c3)c2cc1OC
Observed: enzyme activity
Action: inhibitor
Concentration: 0.5 µM
Reference: control
Protein kinase C beta type, isoform beta-I (PRKCB, Homo sapiens, UniProt P05771) — remaining activity: 103%.
For PRKACA (Homo sapiens, UniProt P17612): remaining activity read 98.6%.
For STK10 (Homo sapiens, UniProt O94804): remaining activity read 24.5%.
It gave 71.7% for remaining activity (Tyrosine-protein kinase Lyn, isoform B (LYN, Homo sapiens, UniProt P07948)).
The remaining activity was 95.2% (cGMP-dependent protein kinase 1, isoform beta (PRKG1, Homo sapiens, UniProt Q13976)).
It gave 79.7% for remaining activity (CHEK2 (Homo sapiens, UniProt O96017)).
IKBKE (Homo sapiens, UniProt Q14164) — remaining activity: 101%.
For MAPK9 (Homo sapiens, UniProt P45984): remaining activity read 92.2%.
The remaining activity was 97% (STK39 (Homo sapiens, UniProt Q9UEW8)).
It gave 88.3% for remaining activity (NEK2 (Homo sapiens, UniProt P51955)).
It gave 93.3% for remaining activity (DAPK2 (Homo sapiens, UniProt Q9UIK4)).
It gave 108% for remaining activity (DAPK1 (Homo sapiens, UniProt P53355)).
The remaining activity was 96.1% (CAMK2D (Homo sapiens, UniProt Q13557)).
Cyclin-dependent kinase 4, with cyclin D1 (CDK4, Homo sapiens, UniProt P11802) — remaining activity: 103%.
The remaining activity was 94.5% (TGFBR2 (Homo sapiens, UniProt P37173)).
The remaining activity was 88.3% (MAP3K3 (Homo sapiens, UniProt Q99759)).
It gave 92% for remaining activity (OXSR1 (Homo sapiens, UniProt O95747)).
PRKCA (Homo sapiens, UniProt P17252) — remaining activity: 111%.
The remaining activity was 100% (TGFBR1 (Homo sapiens, UniProt P36897)).
It gave 102% for remaining activity (IKBKB (Homo sapiens, UniProt O14920)).
It gave 87.3% for remaining activity (Cyclin-dependent kinase 5, with p25 (CDK5, Homo sapiens, UniProt Q00535)).
GRK3 (Homo sapiens, UniProt P35626) — remaining activity: 99.9%.
For CAMKK2 (Homo sapiens, UniProt Q96RR4): remaining activity read 97.5%.

Repeated from above (series 4):
The remaining activity was 95.2% (cGMP-dependent protein kinase 1, isoform beta (PRKG1, Homo sapiens, UniProt Q13976)).
The remaining activity was 88.3% (MAP3K3 (Homo sapiens, UniProt Q99759)).
The remaining activity was 94.5% (TGFBR2 (Homo sapiens, UniProt P37173)).
It gave 108% for remaining activity (DAPK1 (Homo sapiens, UniProt P53355)).
